{"data": "Experimental data collected from several papers", "note": "Compare with care: the assays were run in different laboratories. ± gives the spread as reported."}
{"SMILES": "C[C@@H]1COCCN1c1nc(-c2cnc(N)c(C(F)(F)F)c2)nc2c1C[C@@H]1COCCN21", "cell line": "A2058", "assay": "In-Cell Western, refers to: phospho-Akt Ser473", "conditions": "1 h", "IC50 [nM]": "< 550"}
{"SMILES": "CCn1[c](=[Au-2][Cl])n(CC)c2ccccc21", "cell line": "RC-124 kidney epithelial", "assay": "cell proliferation, crystal violet staining", "conditions": "96 h", "IC50 [nM]": "4700 ± 1100"}
{"SMILES": "Cc1c2c(cc3c(-c4ccccc4)cc(=O)oc13)C(=O)CC1(CCNCC1)O2", "cell line": "NIH3T3", "assay": "hyaluronan secretion", "conditions": "72 h", "IC50 [nM]": "1690 ± 750"}
{"SMILES": "Cc1cc(Cl)n2nc3nc4ccccc4cc3c2n1", "cell line": "colon cancer lines", "assay": "cell survival, MTT", "conditions": "sensitive lines, range", "IC50 [nM]": "600 to 1000"}
{"SMILES": "C=CC(C)(CO)c1cc2cc(-c3ccc(O)cc3O)c(=O)oc2cc1O (stereo not drawn)", "cell line": "Hepa1c1c7", "assay": "cell growth", "IC50 [nM]": "> 100000"}
{"SMILES": "COc1cc(C(=O)c2oc3c(OC)cccc3c2NC(=O)CCl)cc(OC)c1OC", "cell line": "L1210", "assay": "cell growth or viability", "conditions": "24 h", "IC50 [nM]": 62700}
{"SMILES": "O=C(/C=C/c1ccc(O)cc1)c1ccc(F)cc1", "cell line": "WRL68", "assay": "cell growth or viability, MTT", "conditions": "72 h", "IC50 [nM]": 11100}
{"SMILES": "COc1ccc2oc(C(=O)c3cc(OC)c(OC)c(OC)c3)c(NC(=O)CCl)c2c1", "cell line": "L1210", "assay": "cell growth or viability", "conditions": "24 h", "IC50 [nM]": 49000}
{"SMILES": "NC1(c2ccc(-c3nc4ccn5c(=O)[nH]nc5c4cc3-c3ccccc3)cc2)CCC1", "cell line": "MDA-MB-231 LINK-A PIP3-BM knock-out", "assay": "spheroid growth, 3D spheroid viability", "IC50 [nM]": "~50"}
{"SMILES": "COc1ccccc1-c1nccc(COc2ccccc2C[C@@H](Oc2cccc3oc(-c4ccc(F)cc4)c(-c4ccc(OCCN5CCN(C)CC5)c(Cl)c4C)c23)C(=O)O)n1", "cell line": "NCI-H929", "assay": "cell viability, MTT", "conditions": "48 h, 10% CFS", "IC50 [nM]": 47}
{"SMILES": "Oc1cccc(-c2nc(N3CCOCC3)c3oc4ncccc4c3n2)c1", "cell line": "IGROV-1", "assay": "AKT Ser473 phosphorylation, inhibitor, electrochemiluminescent immunoassay", "conditions": "2 h", "IC50 [nM]": "18 ± 2"}
{"SMILES": "COc1ccc(-c2cc3ccccc3[nH]2)cc1", "cell line": "HEK293 NF-κB luciferase reporter", "assay": "reporter gene, refers to: NF-κB", "conditions": "6 h, added: TNFα", "IC50 [nM]": "1400 ± 100"}
{"note": "A few entries again:"}
{"SMILES": "Cc1cc(Cl)n2nc3nc4ccccc4cc3c2n1", "cell line": "colon cancer lines", "assay": "cell survival, MTT", "conditions": "sensitive lines, range", "IC50 [nM]": "600 to 1000"}
{"SMILES": "COc1ccccc1-c1nccc(COc2ccccc2C[C@@H](Oc2cccc3oc(-c4ccc(F)cc4)c(-c4ccc(OCCN5CCN(C)CC5)c(Cl)c4C)c23)C(=O)O)n1", "cell line": "NCI-H929", "assay": "cell viability, MTT", "conditions": "48 h, 10% CFS", "IC50 [nM]": 47}
